{"data": "Assay results of several laboratories", "GBA2": "Beta-glucosidase (GBA2, Homo sapiens, UniProt Q9HCG7)", "PPARA ligand-binding domain": "Peroxisome proliferator-activated receptor alpha, ligand-binding domain (PPARA, Homo sapiens, UniProt Q07869)", "Chymotrypsinogen A": "Chymotrypsinogen A (Bos taurus, UniProt P00766)", "note": "Compare with care: the assays were run in different laboratories.", "sequence of UniProt Q9HCG7 (whole entry, looked up)": "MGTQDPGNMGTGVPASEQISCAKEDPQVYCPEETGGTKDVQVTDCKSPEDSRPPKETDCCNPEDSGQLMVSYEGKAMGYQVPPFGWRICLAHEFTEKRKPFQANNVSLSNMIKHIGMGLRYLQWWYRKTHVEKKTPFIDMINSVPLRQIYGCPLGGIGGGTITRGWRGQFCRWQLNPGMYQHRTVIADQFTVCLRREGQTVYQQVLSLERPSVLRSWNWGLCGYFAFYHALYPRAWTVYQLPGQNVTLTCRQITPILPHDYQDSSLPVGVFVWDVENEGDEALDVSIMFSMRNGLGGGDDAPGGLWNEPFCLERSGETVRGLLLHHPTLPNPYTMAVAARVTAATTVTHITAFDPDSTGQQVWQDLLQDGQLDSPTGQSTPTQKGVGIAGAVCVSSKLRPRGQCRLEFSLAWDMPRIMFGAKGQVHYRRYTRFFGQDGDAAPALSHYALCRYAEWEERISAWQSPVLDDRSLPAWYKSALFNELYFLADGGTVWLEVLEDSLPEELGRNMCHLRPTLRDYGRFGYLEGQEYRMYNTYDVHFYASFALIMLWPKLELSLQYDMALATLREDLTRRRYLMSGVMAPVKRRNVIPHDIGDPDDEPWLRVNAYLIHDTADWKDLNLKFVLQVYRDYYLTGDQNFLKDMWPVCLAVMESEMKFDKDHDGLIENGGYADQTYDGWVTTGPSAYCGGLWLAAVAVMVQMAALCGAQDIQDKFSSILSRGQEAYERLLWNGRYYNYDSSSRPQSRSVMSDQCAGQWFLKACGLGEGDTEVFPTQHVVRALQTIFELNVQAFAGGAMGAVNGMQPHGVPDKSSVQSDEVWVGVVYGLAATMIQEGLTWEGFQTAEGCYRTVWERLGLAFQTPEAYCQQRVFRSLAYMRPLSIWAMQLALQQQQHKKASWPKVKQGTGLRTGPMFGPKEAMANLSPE", "sequence of UniProt Q07869 (whole entry, looked up)": "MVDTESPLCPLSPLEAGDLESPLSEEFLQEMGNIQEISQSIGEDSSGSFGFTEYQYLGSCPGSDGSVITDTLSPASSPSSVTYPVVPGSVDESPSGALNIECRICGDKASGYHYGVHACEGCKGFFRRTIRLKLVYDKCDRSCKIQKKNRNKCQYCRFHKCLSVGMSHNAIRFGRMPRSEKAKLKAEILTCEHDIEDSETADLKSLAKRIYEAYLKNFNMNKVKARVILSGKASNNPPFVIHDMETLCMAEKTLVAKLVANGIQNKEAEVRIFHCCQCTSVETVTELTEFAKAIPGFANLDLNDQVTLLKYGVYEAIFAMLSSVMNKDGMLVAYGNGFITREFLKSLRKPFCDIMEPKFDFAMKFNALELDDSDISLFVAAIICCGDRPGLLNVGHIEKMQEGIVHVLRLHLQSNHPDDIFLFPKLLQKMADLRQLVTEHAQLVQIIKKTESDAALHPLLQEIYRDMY", "sequence of UniProt P32298 (whole entry, looked up)": "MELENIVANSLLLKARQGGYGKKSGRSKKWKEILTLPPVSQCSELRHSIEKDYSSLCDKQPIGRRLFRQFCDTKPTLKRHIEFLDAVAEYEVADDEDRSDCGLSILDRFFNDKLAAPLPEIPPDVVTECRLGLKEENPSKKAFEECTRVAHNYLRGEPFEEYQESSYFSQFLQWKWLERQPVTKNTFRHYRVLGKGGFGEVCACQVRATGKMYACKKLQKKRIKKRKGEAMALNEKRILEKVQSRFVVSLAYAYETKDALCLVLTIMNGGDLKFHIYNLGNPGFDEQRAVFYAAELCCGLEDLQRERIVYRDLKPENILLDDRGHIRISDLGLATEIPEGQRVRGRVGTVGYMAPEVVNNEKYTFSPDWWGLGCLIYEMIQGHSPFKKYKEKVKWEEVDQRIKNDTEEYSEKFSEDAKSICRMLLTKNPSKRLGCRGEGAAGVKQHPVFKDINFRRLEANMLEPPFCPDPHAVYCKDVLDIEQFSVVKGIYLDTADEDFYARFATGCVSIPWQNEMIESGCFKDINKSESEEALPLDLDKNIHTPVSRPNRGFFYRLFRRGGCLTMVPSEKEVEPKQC", "sequence of UniProt P05067 (whole entry, looked up)": "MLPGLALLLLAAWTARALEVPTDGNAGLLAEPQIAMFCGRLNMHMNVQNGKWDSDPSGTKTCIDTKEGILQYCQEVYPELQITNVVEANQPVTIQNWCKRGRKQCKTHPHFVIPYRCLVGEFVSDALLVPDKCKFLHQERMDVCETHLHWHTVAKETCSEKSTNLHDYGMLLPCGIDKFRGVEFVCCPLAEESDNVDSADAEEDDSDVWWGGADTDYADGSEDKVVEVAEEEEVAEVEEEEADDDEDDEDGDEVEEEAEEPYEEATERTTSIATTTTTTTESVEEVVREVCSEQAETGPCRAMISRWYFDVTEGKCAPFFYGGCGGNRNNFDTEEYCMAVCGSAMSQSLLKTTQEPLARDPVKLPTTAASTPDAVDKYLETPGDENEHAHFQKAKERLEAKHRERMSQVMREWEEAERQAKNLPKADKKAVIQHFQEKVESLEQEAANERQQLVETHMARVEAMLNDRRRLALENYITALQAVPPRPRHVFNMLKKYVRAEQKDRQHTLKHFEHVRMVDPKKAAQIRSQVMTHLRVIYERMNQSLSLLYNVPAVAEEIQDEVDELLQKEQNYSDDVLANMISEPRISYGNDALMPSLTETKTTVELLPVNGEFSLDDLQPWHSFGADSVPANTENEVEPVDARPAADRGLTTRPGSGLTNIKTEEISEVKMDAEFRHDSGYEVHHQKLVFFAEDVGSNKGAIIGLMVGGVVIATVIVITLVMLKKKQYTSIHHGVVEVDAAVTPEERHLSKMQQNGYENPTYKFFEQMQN", "sequence of UniProt P00591 (whole entry, looked up)": "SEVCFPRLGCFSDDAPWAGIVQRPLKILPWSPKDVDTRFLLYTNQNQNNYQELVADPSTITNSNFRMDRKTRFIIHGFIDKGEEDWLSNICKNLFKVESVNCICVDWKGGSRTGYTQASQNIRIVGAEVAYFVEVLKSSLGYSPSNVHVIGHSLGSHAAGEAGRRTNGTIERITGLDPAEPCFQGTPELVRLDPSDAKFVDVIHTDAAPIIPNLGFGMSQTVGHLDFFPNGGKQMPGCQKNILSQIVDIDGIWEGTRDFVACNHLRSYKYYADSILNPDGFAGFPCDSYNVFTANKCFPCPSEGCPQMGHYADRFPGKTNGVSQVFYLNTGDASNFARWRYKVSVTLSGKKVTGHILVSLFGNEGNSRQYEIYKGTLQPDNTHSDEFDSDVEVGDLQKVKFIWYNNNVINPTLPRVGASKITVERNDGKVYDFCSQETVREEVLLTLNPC", "sequence of UniProt P19156 (whole entry, looked up)": "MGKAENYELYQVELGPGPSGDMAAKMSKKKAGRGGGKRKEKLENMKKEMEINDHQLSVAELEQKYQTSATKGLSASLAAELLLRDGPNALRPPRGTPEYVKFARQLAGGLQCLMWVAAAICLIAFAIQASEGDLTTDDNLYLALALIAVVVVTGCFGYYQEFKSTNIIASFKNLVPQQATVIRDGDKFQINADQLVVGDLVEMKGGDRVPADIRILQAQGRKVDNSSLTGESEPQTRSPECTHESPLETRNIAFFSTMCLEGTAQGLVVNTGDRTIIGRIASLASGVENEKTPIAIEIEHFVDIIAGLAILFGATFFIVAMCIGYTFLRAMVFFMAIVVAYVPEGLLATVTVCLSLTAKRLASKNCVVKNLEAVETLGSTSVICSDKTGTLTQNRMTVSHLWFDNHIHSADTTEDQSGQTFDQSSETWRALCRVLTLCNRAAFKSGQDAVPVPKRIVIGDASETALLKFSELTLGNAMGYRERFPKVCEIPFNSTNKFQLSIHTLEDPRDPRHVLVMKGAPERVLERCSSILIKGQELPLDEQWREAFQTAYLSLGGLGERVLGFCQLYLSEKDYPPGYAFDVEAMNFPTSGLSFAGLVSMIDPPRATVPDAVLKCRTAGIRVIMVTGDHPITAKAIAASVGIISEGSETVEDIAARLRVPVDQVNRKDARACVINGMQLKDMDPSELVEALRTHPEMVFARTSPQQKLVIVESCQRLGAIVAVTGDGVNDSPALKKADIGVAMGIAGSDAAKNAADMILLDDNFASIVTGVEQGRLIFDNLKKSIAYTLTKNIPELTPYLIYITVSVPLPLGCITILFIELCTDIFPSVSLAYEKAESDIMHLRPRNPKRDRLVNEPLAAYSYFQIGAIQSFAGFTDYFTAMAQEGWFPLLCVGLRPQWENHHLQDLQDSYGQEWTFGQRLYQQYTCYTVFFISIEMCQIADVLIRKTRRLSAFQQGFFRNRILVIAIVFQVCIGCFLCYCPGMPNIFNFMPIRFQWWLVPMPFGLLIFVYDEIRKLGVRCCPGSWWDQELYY", "sequence of UniProt Q92769 (whole entry, looked up)": "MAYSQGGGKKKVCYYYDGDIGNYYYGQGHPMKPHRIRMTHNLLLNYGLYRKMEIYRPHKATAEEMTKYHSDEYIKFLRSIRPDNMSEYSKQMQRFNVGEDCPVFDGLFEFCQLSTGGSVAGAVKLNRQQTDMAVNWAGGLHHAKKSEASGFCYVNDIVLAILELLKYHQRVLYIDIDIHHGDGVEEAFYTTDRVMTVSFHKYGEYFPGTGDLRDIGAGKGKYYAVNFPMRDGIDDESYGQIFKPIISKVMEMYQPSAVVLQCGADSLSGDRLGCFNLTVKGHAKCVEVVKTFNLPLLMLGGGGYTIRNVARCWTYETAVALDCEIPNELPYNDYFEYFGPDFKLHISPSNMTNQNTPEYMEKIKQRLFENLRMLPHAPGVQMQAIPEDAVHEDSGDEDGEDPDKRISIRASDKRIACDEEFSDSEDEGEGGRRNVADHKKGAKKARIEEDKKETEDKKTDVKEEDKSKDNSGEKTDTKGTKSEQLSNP"}
{"Structure (SMILES)": "CC(C)C(O)C#Cc1ccc2[nH]c3c(c2c1)-c1nc(N)ncc1CC3 (stereo not drawn)", "target": "PIP4K2C (Homo sapiens, UniProt Q8TBX8)", "test": "target engagement in cells, BRET", "IC50 [µM]": 0.027}
{"Structure (SMILES)": "OC[C@@H]1[C@@H](O)[C@H](O)[C@@H](O)CN1CCCCCOCc1cccc(-c2ccccc2)c1", "target": "GBA2", "test": "inhibitor, 4MU-β-D-glucopyranoside", "system": "HEK293T homogenates overexpressing GBA2", "IC50 [µM]": 0.002}
{"Structure (SMILES)": "Cc1c(Cc2cccc(OC(C)C(=O)O)c2)c2ccc(C(=O)N[C@@H](C)c3cccc(C(C)C)c3)cc2n1C (stereo partly drawn)", "target": "PPARA ligand-binding domain", "test": "reporter gene, luciferase reporter", "system": "HEK293T, Gal4-PPARα LBD", "IC50 [µM]": 3.6}
{"Structure (SMILES)": "Cc1cccc(C)c1CNc1cc(C(=O)N2CCC2)cn2c(C)c(C)nc12", "target": "Potassium-transporting ATPase alpha chain 1 (Sus scrofa, UniProt P19156)", "test": "enzyme activity, inhibitor", "system": "porcine gastric vesicles", "setting": "pH 6.5", "IC50 [µM]": 0.0167}
{"Structure (SMILES)": "N#Cc1cnc(NC(=O)Nc2cc(Cl)ccc2OC2CCOC2)cn1 (stereo not drawn)", "target": "CHEK1 (Homo sapiens, UniProt O14757)", "test": "enzyme activity, inhibitor", "IC50 [µM]": 0.00295}
{"Structure (SMILES)": "C[C@H](OCCCCCN1C[C@H](O)[C@@H](O)[C@H](O)[C@H]1CO)c1ccc(-c2ccccc2)cc1", "target": "GBA2", "test": "inhibitor, 4MU-β-D-glucopyranoside", "system": "HEK293T homogenates overexpressing GBA2", "IC50 [µM]": 0.003}
{"Structure (SMILES)": "CN(C1=C(c2ccccc2)C(=O)NC1=O)c1ccc(F)cc1", "target": "Sensor histidine kinase AirS (Staphylococcus aureus, UniProt Q2FX96)", "test": "autophosphorylation, inhibitor, BODIPY-FL-ATPγS in-gel fluorescence", "setting": "lower bound of confidence interval", "IC50 [µM]": "> 1250"}
{"Structure (SMILES)": "C[C@H](c1ccccc1)N1C(=O)C2=Nc3cccc(Cl)c3CN2C1=S", "target": "GRK4 (Homo sapiens, UniProt P32298)", "test": "enzyme activity, inhibitor", "IC50 [µM]": 0.254}
{"Structure (SMILES)": "COc1cc(/C=C/c2cc(-[c-]3cccc3)[nH]n2)ccc1O.[Fe+2].c1cc[cH-]c1", "target": "APP (Homo sapiens, UniProt P05067)", "test": "amyloid aggregation, inhibitor, fluorescence", "setting": "pH 6.9", "IC50 [µM]": 13}
{"Structure (SMILES)": "C[C@@H]1O[C@@H](OC[C@H]2O[C@@H](Oc3c(-c4ccc(O)cc4)oc4cc(O)cc(O)c4c3=O)[C@H](O[C@@H]3O[C@@H](C)[C@H](O)[C@@H](O)[C@H]3O)[C@@H](O)[C@@H]2O)[C@H](O)[C@H](O)[C@H]1O", "target": "PNLIP (Sus scrofa, UniProt P00591)", "test": "enzyme activity, inhibitor", "IC50 [µM]": 49.9}
{"Structure (SMILES)": "Cc1nc2cc(C(=O)N[C@@H](C)c3ccc(C(C)(C)C)cc3)ccc2n1Cc1cc(Cl)cc(O[C@H](C)C(=O)O)c1", "target": "PPARA ligand-binding domain", "test": "reporter gene, luciferase reporter", "system": "HEK293T, Gal4-PPARα LBD", "IC50 [µM]": 0.01}
{"Structure (SMILES)": "Cc1nn(-c2cccc(N)c2)c(=O)c2cnc(Nc3ccc(N4CCNCC4)cc3)nc12", "target": "RET (Homo sapiens, UniProt P07949, V804L)", "test": "enzyme activity, inhibitor", "IC50 [µM]": "> 10"}
{"Structure (SMILES)": "O=C(Nc1cc(Cl)ccc1OCC1CC1)C(C(F)(F)F)C(F)(F)F", "target": "Chymotrypsinogen A", "test": "enzyme activity, inhibitor, fluorescence", "IC50 [µM]": 12}
{"Structure (SMILES)": "OC[C@@H]1[C@@H](O)[C@H](O)[C@@H](O)CN1CCCCCOCc1ccc(-c2ccc(Br)cc2)cc1", "target": "GBA2", "test": "inhibitor, 4MU-β-D-glucopyranoside", "system": "HEK293T homogenates overexpressing GBA2", "IC50 [µM]": "4e-05"}
{"Structure (SMILES)": "N#Cc1ccc(-c2ccc(NC(=O)C(C(F)(F)F)C(F)(F)F)cc2)cc1", "target": "Chymotrypsinogen A", "test": "enzyme activity, inhibitor, fluorescence", "IC50 [µM]": "> 100"}
{"Structure (SMILES)": "OC[C@H]1[C@@H](O)[C@H](O)[C@@H](O)CN1CCCC/C=C\\C12CC3CC(CC(C3)C1)C2", "target": "GBA2", "test": "inhibitor, 4MU-β-D-glucopyranoside", "system": "HEK293T homogenates overexpressing GBA2", "IC50 [µM]": 0.008}
{"Structure (SMILES)": "Cc1ccc(S(=O)(=O)N2CC(NC(=O)c3ccc(F)cc3)C2=O)cc1 (stereo not drawn)", "target": "Chymotrypsinogen A", "test": "enzyme activity, inhibitor, fluorescence", "IC50 [µM]": 189}
{"Structure (SMILES)": "Cc1c(COc2cc(OCc3cccc(C#N)c3)c(CNC(CO)(CO)CO)cc2Cl)cccc1-c1cccc(OCCCCCC(=O)NO)c1", "target": "HDAC2 (Homo sapiens, UniProt Q92769)", "test": "enzyme activity, inhibitor", "IC50 [µM]": 0.108}
{"note": "For quick reference, copied from above:"}
{"Structure (SMILES)": "N#Cc1ccc(-c2ccc(NC(=O)C(C(F)(F)F)C(F)(F)F)cc2)cc1", "target": "Chymotrypsinogen A", "test": "enzyme activity, inhibitor, fluorescence", "IC50 [µM]": "> 100"}
{"Structure (SMILES)": "OC[C@H]1[C@@H](O)[C@H](O)[C@@H](O)CN1CCCC/C=C\\C12CC3CC(CC(C3)C1)C2", "target": "GBA2", "test": "inhibitor, 4MU-β-D-glucopyranoside", "system": "HEK293T homogenates overexpressing GBA2", "IC50 [µM]": 0.008}
